# Measured values collected from several papers.
# Every numbered part comes from another study and shows a few of its results, in no order. Changes are numbered by the printed parent chain.

# Block 1
# Target: RNA binding protein fox-1 homolog 2, RRM domain, GST-SBP tag (RBFOX2, Homo sapiens, UniProt O43251-10, residues 100-194)
# Technique: RNA Bind-n-Seq
# Form: RNA
# Medium: in vitro
# Tested at: 365 nM
# Notes: natural RNA segment, single round, ends assumed
# Reference: no-protein control
# Direction: higher = stronger binding
# Shared flanks, not repeated: GGGAGUUCUACAGUCCGACGAUC … UGGAAUUCUCGGGUGCCAA
# Residues (chain): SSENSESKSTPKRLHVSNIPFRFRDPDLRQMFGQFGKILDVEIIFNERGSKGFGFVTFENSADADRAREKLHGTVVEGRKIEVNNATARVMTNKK
Strand,RBNS enrichment (R)
CUGCAGCUGUCAUGGCUUUACAGUCACUUGGGAAAUGCAAGCCACUGUUAAAGCUUUGUCCUGUUCAUCACUGUCCCUGCUCCUGGCAUAACACUUCCAGAGGCUUUCCU,0.221
CAGGCCCGACCUUGAUGUCCACCUCCACAGCCUGGGCUUCUGCCUGGAGCCUGGCAGCCACAGACAUCAUACACAGCCUCUGAAGCUUAUUAAAGUAUGUUCACCCACUG,0.238
UUGAUUCCAUCCUGAGAAUUCAUGUUUAUAAUUAAAUGUGUGUUAAAUAUGCAAGCAUAUCACAAAUGUUCCUUGUCCUUUCAAAGUGCAUUUGUUCAUCAAGAUCAAUA,0.406
UUUUCAAAGAAACAGCUGUGCUAAUGUCUUUGGUUUCCCGAUGAGUGUACACUACUGUAUAAUUUAUGUUUACCAUAUGAGUCUUGAAACACUACAGAUAUUUUGAAUAU,0.561
CAUUUAUUCUUCUUUUCCAAUUGAACUUUCACAUAGCACAGAAAAAAUUCAAACUGCCUAUAUUGAUAAAACCAUACAGUGAGCCAGCCUUGCAGUAGGCAGUAGACUAU,0.485
CUUUGUACUACUGGUCCAGCUGCCUUGGGCUCCUUUUCUAUAUUAAUAAAGAAACGAGUAAAAAUUACCGGUGGGGAUGAUGUUUAAAAUUGCUCUGAUCACUGGUGGUG,0.854
CACAUCAUGAUUCCCGACGUGAGUUAGAUGAGGGAGAGUUUGUGUAACUCCACACCCAGGAGGGUAAGCCACUUUAUUAUCAUGCUUUGGGGCUGUGCUUAAGAAUUUAA,0.415
GCGGGAACUUCCUCCUGAACUACCCAGGGCCUAAUCAUCCAGCACCUGUGUGUUGAGGUAGACUGGUCAGAUACAGGGCAGAAGUCAGGGGUGUAGGUUCGAGGAAGGAG,0.621

# Block 2
# Target: ABI1, truncated, D143A, DHFR fusion (Arabidopsis thaliana)
# Technique: DHFR PCA, deep sequencing
# Medium: yeast
# Notes: methotrexate growth selection, single substitutions
# Added: (+)-ABA 0.11 µM
# Reference: wild-type fitted maximum
# Direction: higher = stronger binding
# Parent: PYL1, truncated, DHFR fusion (Arabidopsis thaliana); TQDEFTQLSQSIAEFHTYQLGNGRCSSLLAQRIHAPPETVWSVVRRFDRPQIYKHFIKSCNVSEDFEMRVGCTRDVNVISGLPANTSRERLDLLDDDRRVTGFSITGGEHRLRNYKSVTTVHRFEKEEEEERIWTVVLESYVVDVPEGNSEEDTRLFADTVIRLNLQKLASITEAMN
Change,relative binding score [%]
I162W,1.98
T106D,-1.88
E109L,1.08
E151G,6.37
T39K,14.8
L156C,28.9
Q7E,39.5
T101Y,1.73

# Block 3
# Target: CCNB3, cyclin fold, Cln2 fusion (human)
# Technique: yeast growth competition, sequencing
# Medium: yeast
# Notes: weak parent motif
# Reference: not given
# Direction: higher = stronger binding
# Parent: CDC6 docking peptide (human); TLKGRRLVFDNQL; partner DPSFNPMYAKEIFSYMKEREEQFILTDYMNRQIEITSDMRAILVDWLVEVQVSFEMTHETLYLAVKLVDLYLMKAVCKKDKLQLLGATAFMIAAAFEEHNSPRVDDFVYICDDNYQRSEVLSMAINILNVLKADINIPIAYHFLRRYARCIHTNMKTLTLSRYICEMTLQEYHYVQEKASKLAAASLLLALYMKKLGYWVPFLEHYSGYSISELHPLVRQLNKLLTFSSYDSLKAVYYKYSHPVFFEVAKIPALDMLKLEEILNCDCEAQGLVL
Change,normalised enrichment score
TLKGRRLVFPNQL [D10P],0.06
TLKGRRLVFDNQR [L13R],0.36
TLKGRRHVFDNQL [L7H],-0.0969
TLKGRRLVFDNTL [Q12T],0.265
TLKGRRLVFKNQL [D10K],-0.17
DLKGRRLVFDNQL [T1D],-0.174
TLKGRRLWFDNQL [V8W],0.273
TLKGRRLVWDNQL [F9W],0.504
TLTGRRLVFDNQL [K3T],0.486

# Mixed results
Molecule,target,test,system,conditions,scale,measurement,result
"PhoQ, residues 284 288 289 292 302 303 AGCYAI","PhoP, residues 12 14 15 18 19 IQSYL (Escherichia coli, UniProt P23836)","Sort-seq, measured: YFP reporter",E. coli,"PhoQ-PhoP variant library, added: 10 µM Mg2+","reference: high Mg2+ state, higher = stronger signaling",fold induction,7.21

# Some of these lines once more (block 2):
Change,relative binding score [%]
I162W,1.98
E151G,6.37
L156C,28.9
E109L,1.08
